# Measurements gathered from unrelated publications.
# Protocols differ between the studies behind these lines. Numbers after ± are the reported error.
# UniProt P42685, sequence (whole entry, looked up): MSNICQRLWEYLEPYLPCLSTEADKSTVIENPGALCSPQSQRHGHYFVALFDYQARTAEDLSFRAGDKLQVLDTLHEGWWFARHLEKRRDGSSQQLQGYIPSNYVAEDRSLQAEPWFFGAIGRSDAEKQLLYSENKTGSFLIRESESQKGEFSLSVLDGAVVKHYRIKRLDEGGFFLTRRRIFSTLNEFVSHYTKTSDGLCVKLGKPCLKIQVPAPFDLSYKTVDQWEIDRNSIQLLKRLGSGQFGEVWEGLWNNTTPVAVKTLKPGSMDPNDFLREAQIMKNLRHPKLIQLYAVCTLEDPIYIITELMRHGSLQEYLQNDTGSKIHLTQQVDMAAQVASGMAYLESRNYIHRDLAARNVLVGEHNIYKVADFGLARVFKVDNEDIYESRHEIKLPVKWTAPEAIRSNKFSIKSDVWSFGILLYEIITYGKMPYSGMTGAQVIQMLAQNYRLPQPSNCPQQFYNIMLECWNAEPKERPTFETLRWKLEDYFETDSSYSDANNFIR
SMILES,target or system,test,test system,conditions,how to read,quantity,value
C=CC(=O)Nc1cccc(Cn2ncc3cnc(Nc4cnn(CCOC)c4)nc32)c1,DMPK2 human,"binding, KINOMEscan",,100 nM,lower = stronger binding,percent of control,96%
CN1CCCNC(=O)c2cccc(c2)C(=O)NCCCN(C)CCCNc2cccc3c2C(=O)c2cccc(c2C3=O)NCCC1,SAS,"RNA-seq, measured: MT-CO3 mRNA",,"1 µM, 6 h",baseline: untreated cells,log2 fold change,-2.21
Cc1ccc([N+](=O)[O-])cc1S(=O)(=O)N(C)/N=C/c1cnc2ccc(Br)cn12,SNB-19,MTS,,NCI60 panel,,IC50,385 nM
C=C(C)C(=O)NCCCCOCc1cn(CCCCNC(=O)C(=C)C)nn1,L929,"viability, alamarBlue",,3 days,,IC50,> 50000 nM
Nc1ncc(-c2cc(-c3cnn(CC(F)(F)F)c3)ncc2F)nc1C(=O)NC1CNCC(F)C1 (stereo not shown),GAK,KINOMEscan,,1 µM,baseline: DMSO control,remaining binding,94%
C[C@H](c1ccccc1)N1C(=O)C2=Nc3ccc(F)cc3CN2C1=S,"CEM/ADR5000 (P-gp overexpressing, multidrug resistant)","cell viability, resazurin",,72 h,,IC50,472 ± 51 nM
COC(=O)N1c2ccc3c(nc(Cc4ccccc4)n3[C@@H]3CCC[C@@H](C(=O)O)C3)c2CC[C@@H]1C,HCC38,"cell growth or viability, ATP luminescence",,10 days,,IC50,830 nM
Cc1ncsc1-c1ccc(C(C)NC(=O)C2CC(O)CN2C(=O)C(NC(=O)CCCCCCCCCCN2CCCC(Nc3ncc(Cl)c(Nc4ccccc4S(=O)(=O)C(C)C)n3)C2)C(C)(C)C)cc1 (stereo not shown),22Rv1,"RNA-seq, measured: TMEM63C mRNA",,concentration not given,baseline: DMSO,log2 fold change,-1.22
CNS(=O)(=O)Nc1nccc(Cc2c(C)c3ccc(Oc4ncccc4F)cc3oc2=O)c1F,CA46,cell viability,,7 days,,IC50,> 1000 nM
C=C(NC(=O)c1csc(-c2nc3c(cc2O)-c2nc(cs2)C(=O)NC(C(C)O)C(=O)NC(=C(C)OC)c2nc(cs2)C(=O)NC2c4nc(cs4)C(=O)NC(COC(=O)c4c5c6c(cccc6n4O)COC(=O)C(OC4CC(C)(O)C(N(C)C)C(C)O4)C2OC5)c2nc-3cs2)n1)C(N)=O (stereo not shown),Streptococcus pneumoniae,microbial growth,PRSP,clinical isolate,,MIC90,0.0078 µg/mL
CN1CCC(N[C@H]2CCc3[nH]c4c(C(N)=O)ccc(-c5ccccc5Cl)c4c3C2)CC1,RBE,cell growth or viability,,,,IC50,440 nM
CCOc1cncc(-c2ccc(NC(=O)C3(c4ccnc(NS(=O)(=O)C5CC5)n4)CCOCC3)nc2)n1,BT-474,"cell growth or viability, ATP luminescence",,72 h,,IC50,10000 nM
CN(C)CCNC(=O)c1cccn2c(=O)c3cc4ccccc4cc3nc12,THLE3,"cell growth or viability, imaging",,72 h,,IC50,64600 nM
C[C@@H](c1ccccc1)N1C(=O)C2=Nc3ccccc3CN2C1=S,"CEM/ADR5000 (P-gp overexpressing, multidrug resistant)","cell viability, resazurin",,72 h,,IC50,460 ± 10 nM
CCCC[C@H](NC(=O)CCCCCCCNC(=O)CN1CCN(CC(=O)O)CCN(CC(=O)O)CC1)C(=O)N[C@H]1CC(=O)NCCCC[C@@H](C(N)=O)NC(=O)[C@H](Cc2c[nH]c3ccccc23)NC(=O)[C@H](CCCNC(=N)N)NC(=O)[C@@H](Cc2ccccc2)NC(=O)[C@H](Cc2c[nH]cn2)NC1=O [technetium-99m labelled],,,"C57 mouse, liver","intravenous, 0.037 MBq, 24 h",,tissue uptake,0.02 ± 0.01 %ID/g
Nc1ncnc2c1ncn2CCN1C(=O)/C(=N\N=C2/NC(=O)CS2)c2cc(F)ccc21,A498,"cell growth or viability, SRB",,72 h,,IC50,84.2 µg/mL
CC(C)=CC1OC(C)(C)C2C=C3C(=O)C(Cl)=CC(O)C3C3C(O)C4OC4C(=O)C132 (stereo not shown),NCI-H3122,"cell growth or viability, MTS",,,,IC50,2080 nM
CC(C)N1C(=O)C2=Nc3ccccc3CN2C1=S,"CEM/ADR5000 (P-gp overexpressing, multidrug resistant)","cell viability, resazurin",,72 h,,IC50,31400 ± 7700 nM
Cn1ncc(-c2ccc3c(=O)[nH]nc(CN)c3c2)c1-c1c(F)c(Cl)cc(OC2CC2)c1C#N,RS4;11,"cell viability, inhibitor, CellTiter-Glo",,120 h,,IC50,140 nM
CC(C)c1ccc(N(C)c2ccc3c(c2)OCC[C@H]3CNc2cnccc2C(=O)O)cc1,SK-HEP1,"cell growth or viability, ATP luminescence",,7 days,,IC50,≥ 10000 nM
C=CS(=O)(=O)NCCCCCCOCc1cn(CCCCCCNS(=O)(=O)C=C)nn1,L929,cell growth or viability,,72 h,,IC50,16600 nM
O=S(=O)(N[C@H]1CCC[C@@H](N2c3ccccc3CCc3ccccc32)[C@@H]1O)c1ccc(OC(F)(F)F)cc1,T98G,cell growth or viability,,72 h,,IC50,7100 nM
COC1CN([C@H]2CC[C@H]([C@@]3(C)Oc4c(Cl)cc(C(=O)NCc5c(SC)cc(C)[nH]c5=O)c(C)c4O3)CC2)C1,,"RNA-seq, measured: IGSF3 mouse homolog","mouse, HT-1376 xenograft, whole blood",dose not given,baseline: vehicle,log2 fold change,1.47
C=C(C)C(=O)NCCCCCCCCOCc1cn(CCCCCCCCNC(=O)C(=C)C)nn1,L929,"viability, alamarBlue",,3 days,,IC50,> 50000 nM
Cc1nn(-c2cccc(N)c2)c(=O)c2cnc(Nc3ccc(N4CCNCC4)cc3)nc12,"FRK (Homo sapiens, UniProt P42685)","enzyme activity, inhibitor",,,,IC50,> 10000 nM

# Repeated from above:
SMILES,target or system,test,test system,conditions,how to read,quantity,value
Cc1ncsc1-c1ccc(C(C)NC(=O)C2CC(O)CN2C(=O)C(NC(=O)CCCCCCCCCCN2CCCC(Nc3ncc(Cl)c(Nc4ccccc4S(=O)(=O)C(C)C)n3)C2)C(C)(C)C)cc1 (stereo not shown),22Rv1,"RNA-seq, measured: TMEM63C mRNA",,concentration not given,baseline: DMSO,log2 fold change,-1.22
CNS(=O)(=O)Nc1nccc(Cc2c(C)c3ccc(Oc4ncccc4F)cc3oc2=O)c1F,CA46,cell viability,,7 days,,IC50,> 1000 nM
C=C(NC(=O)c1csc(-c2nc3c(cc2O)-c2nc(cs2)C(=O)NC(C(C)O)C(=O)NC(=C(C)OC)c2nc(cs2)C(=O)NC2c4nc(cs4)C(=O)NC(COC(=O)c4c5c6c(cccc6n4O)COC(=O)C(OC4CC(C)(O)C(N(C)C)C(C)O4)C2OC5)c2nc-3cs2)n1)C(N)=O (stereo not shown),Streptococcus pneumoniae,microbial growth,PRSP,clinical isolate,,MIC90,0.0078 µg/mL
